Results of several laboratories.
Each numbered part is a random draw from the data of one study; scales do not carry over between parts. Positions count from the first letter of the parent shown.

Study 1
Target: Centromere-binding protein 1, full length, N-terminal tag (CBF1, Saccharomyces cerevisiae, UniProt P17106, residues 1-351)
Chain of UniProt P17106 (whole entry, looked up): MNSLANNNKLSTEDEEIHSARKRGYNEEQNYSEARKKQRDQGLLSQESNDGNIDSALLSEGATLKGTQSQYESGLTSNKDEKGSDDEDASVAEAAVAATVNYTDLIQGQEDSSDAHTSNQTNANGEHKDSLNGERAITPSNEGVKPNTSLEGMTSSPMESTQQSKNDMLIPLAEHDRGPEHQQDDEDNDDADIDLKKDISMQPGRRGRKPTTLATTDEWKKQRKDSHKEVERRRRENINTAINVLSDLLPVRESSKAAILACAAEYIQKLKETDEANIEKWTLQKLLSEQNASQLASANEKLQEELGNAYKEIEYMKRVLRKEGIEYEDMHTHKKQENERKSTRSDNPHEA
Method: protein-binding microarray
Form: double-stranded DNA, one strand shown
Medium: in vitro
Concentration: 0.8 µM
Setting: whole 60-bp probe, no competitor
Direction: higher = stronger binding
Measurement: fluorescence intensity
All sequences stand within: … GTCTTGATTCGCTTGACGCTGCTG
GAACGTGGAGCAAGCCACGCCATGTGATTAACCTAG: 2930 a.u.
CCTAACTACTATAAGTGCGTGAGATAGCTTCGTACA: 528 a.u.
CTATCTACGAACCATGTGATTATTAGCACTGTATTC: 2520 a.u.
GAAGAACGAATTCCAGGTGATTCCGATAAGATTTAG: 554 a.u.
GAACTAAACCGATATCACGCTAGTATTTATTTCTAG: 654 a.u.
CTAAATCGCATTATATACGTGGCACCTACAGTCTTC: 491 a.u.
CTAAATTCCTGTAGCTACGTGATGACCTCTGCTTTC: 536 a.u.
CTAATTGATTGGGTTCATGACACCCAGGGAAGTTTC: 519 a.u.

Study 2
Target: CRIPT, C-terminal peptide
Method: DHFR complementation, deep sequencing
Medium: yeast
Setting: single substitutions, model-inferred values
Relative to: wild type
Direction: higher = weaker binding
Measurement: binding free energy change
Starting sequence: ERBIN, PDZ domain 1 (human); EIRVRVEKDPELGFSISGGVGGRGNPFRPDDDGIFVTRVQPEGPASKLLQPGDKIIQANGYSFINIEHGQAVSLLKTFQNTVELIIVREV; partner TKNYKQTSV
F63S: 3.33 kJ/mol
Q50E: 0.0487 kJ/mol
A58R: 3.14 kJ/mol
E11N: -1.78 kJ/mol
R23N: -2.57 kJ/mol
V6Q: 2.17 kJ/mol
G22N: 0.671 kJ/mol
G22R: 2.06 kJ/mol

Study 3
Substitution: E89H
Target: ABI1, truncated, D143A, DHFR fusion (Arabidopsis thaliana)
Method: DHFR PCA, deep sequencing
Medium: yeast
Setting: methotrexate growth selection, single substitutions
Relative to: wild-type fitted maximum
Direction: higher = stronger binding
Measurement: relative binding score
Starting sequence: PYL1, truncated, DHFR fusion (Arabidopsis thaliana); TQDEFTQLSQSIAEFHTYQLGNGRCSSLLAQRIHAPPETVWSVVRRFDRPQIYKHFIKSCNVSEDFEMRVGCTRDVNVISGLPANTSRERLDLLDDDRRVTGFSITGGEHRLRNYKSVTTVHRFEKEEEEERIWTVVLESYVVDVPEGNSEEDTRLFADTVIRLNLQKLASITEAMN
together with: (+)-ABA 0.032 µM: -0.841%
together with: (+)-ABA 1.4 µM: 3.12%
together with: (+)-ABA 0.39 µM: 2.93%
together with: (+)-ABA 2500 µM: 26.4%
together with: (+)-ABA 0 µM: 4.62%
together with: (+)-ABA 0.11 µM: -1.89%

Other studies, line by line
O=C1CC(C(=O)Nc2ccccc2-c2ccccc2)c2ccccc21 (centres unmarked)  remaining compound (human, microsomes or S9; 2 µM, 0.5 h): 12.1%

Excerpt of the above (study 2):
E11N: -1.78 kJ/mol
F63S: 3.33 kJ/mol
Q50E: 0.0487 kJ/mol
